Measured values pooled from the literature.
Lines come from different studies, so protocols differ. “And” joins repeats or separate records; there may be more than shown. Numbers after ± are the reported error.
PARP1: Poly [ADP-ribose] polymerase 1 (PARP1, Homo sapiens, UniProt P09874)
Sequence of UniProt P09874 (whole entry, looked up): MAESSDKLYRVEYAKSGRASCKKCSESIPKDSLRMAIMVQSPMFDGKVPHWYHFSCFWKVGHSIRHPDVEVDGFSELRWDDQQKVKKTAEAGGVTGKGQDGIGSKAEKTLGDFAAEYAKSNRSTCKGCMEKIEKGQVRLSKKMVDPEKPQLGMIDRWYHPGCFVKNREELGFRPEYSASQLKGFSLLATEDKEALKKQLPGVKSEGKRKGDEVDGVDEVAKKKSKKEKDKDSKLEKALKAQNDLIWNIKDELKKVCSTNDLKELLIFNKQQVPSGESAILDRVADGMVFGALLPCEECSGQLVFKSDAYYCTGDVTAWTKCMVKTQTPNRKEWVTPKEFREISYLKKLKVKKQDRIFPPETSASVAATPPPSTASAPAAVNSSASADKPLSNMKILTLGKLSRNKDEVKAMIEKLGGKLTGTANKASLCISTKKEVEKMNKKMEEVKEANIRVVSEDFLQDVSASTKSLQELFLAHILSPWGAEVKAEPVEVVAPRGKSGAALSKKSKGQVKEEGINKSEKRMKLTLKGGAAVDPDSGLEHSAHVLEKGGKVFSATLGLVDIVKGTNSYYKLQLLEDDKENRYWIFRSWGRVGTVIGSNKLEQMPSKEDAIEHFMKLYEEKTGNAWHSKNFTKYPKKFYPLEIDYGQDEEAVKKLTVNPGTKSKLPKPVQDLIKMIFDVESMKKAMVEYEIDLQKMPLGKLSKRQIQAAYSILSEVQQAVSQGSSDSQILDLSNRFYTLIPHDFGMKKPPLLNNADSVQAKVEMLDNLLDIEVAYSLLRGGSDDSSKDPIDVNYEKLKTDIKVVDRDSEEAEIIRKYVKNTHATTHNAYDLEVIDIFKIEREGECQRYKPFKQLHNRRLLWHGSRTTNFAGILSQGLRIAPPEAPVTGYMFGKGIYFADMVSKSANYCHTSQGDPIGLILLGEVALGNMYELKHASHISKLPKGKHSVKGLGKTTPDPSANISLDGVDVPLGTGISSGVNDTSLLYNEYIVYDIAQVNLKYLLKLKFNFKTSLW
HDAC8: Histone deacetylase 8 (HDAC8, Homo sapiens, UniProt Q9BY41)
FAAH: Fatty-acid amide hydrolase 1 (FAAH, Homo sapiens, UniProt O00519)
Sequence of UniProt O00519 (whole entry, looked up): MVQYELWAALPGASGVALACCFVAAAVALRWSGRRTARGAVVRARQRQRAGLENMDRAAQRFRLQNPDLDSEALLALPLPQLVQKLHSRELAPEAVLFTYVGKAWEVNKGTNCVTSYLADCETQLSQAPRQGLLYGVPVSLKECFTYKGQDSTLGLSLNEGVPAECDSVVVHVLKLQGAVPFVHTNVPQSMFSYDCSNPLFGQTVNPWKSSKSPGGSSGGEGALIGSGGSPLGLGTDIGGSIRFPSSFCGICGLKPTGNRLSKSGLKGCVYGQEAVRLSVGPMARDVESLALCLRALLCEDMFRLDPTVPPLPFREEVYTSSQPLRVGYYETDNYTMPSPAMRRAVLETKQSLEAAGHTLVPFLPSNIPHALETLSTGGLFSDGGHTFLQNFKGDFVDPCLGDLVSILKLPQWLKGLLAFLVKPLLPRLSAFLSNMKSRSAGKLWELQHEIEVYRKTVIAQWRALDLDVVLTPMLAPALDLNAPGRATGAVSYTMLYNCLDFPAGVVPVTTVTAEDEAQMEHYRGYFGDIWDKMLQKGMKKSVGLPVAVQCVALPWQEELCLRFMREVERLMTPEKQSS
CXCR4: C-X-C chemokine receptor type 4 (CXCR4, Homo sapiens, UniProt P61073)
Sequence of UniProt P61073 (whole entry, looked up): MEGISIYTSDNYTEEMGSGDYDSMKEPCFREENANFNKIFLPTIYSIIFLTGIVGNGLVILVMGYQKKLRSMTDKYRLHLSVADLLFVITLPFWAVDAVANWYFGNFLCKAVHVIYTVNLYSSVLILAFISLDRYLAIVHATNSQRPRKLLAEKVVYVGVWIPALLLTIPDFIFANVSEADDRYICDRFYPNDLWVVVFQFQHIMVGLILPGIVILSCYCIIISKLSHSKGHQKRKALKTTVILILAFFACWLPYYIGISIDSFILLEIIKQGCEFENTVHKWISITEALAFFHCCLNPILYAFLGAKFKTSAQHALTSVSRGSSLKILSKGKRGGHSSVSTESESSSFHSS
ABCC1: Multidrug resistance-associated protein 1 (ABCC1, Homo sapiens, UniProt P33527)
Sequence of UniProt P08183 (whole entry, looked up): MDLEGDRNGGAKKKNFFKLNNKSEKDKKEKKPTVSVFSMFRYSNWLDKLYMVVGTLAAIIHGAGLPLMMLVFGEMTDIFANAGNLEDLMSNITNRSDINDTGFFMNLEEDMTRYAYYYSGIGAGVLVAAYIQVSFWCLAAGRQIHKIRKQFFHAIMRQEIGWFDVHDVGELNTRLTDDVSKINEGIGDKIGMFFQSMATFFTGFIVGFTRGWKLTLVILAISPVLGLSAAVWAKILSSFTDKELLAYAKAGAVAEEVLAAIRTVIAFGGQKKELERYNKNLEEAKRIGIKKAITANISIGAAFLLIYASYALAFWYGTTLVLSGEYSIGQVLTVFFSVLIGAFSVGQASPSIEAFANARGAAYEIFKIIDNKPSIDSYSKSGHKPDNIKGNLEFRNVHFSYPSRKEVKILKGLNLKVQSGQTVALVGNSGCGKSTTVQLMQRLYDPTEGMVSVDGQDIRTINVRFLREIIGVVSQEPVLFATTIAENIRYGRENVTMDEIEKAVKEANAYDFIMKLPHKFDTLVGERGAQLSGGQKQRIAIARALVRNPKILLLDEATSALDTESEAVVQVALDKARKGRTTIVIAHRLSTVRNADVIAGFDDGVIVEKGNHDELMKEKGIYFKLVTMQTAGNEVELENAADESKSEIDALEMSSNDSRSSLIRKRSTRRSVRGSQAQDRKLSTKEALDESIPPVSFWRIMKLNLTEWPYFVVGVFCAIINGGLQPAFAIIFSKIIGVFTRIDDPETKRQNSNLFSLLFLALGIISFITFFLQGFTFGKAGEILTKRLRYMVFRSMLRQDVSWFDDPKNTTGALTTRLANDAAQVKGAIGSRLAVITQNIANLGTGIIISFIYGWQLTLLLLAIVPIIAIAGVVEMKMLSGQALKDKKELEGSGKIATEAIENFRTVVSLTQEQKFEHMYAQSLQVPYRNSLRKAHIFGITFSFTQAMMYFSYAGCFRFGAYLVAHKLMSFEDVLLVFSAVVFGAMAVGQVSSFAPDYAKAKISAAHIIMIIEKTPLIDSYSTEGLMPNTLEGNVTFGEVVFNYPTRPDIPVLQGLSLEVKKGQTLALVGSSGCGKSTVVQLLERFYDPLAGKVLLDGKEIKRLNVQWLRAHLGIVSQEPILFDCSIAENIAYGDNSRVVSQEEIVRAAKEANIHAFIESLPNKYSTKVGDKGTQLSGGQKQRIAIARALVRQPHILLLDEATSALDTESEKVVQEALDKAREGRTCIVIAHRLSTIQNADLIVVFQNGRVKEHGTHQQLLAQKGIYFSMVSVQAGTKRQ
Sequence of UniProt P33527 (whole entry, looked up): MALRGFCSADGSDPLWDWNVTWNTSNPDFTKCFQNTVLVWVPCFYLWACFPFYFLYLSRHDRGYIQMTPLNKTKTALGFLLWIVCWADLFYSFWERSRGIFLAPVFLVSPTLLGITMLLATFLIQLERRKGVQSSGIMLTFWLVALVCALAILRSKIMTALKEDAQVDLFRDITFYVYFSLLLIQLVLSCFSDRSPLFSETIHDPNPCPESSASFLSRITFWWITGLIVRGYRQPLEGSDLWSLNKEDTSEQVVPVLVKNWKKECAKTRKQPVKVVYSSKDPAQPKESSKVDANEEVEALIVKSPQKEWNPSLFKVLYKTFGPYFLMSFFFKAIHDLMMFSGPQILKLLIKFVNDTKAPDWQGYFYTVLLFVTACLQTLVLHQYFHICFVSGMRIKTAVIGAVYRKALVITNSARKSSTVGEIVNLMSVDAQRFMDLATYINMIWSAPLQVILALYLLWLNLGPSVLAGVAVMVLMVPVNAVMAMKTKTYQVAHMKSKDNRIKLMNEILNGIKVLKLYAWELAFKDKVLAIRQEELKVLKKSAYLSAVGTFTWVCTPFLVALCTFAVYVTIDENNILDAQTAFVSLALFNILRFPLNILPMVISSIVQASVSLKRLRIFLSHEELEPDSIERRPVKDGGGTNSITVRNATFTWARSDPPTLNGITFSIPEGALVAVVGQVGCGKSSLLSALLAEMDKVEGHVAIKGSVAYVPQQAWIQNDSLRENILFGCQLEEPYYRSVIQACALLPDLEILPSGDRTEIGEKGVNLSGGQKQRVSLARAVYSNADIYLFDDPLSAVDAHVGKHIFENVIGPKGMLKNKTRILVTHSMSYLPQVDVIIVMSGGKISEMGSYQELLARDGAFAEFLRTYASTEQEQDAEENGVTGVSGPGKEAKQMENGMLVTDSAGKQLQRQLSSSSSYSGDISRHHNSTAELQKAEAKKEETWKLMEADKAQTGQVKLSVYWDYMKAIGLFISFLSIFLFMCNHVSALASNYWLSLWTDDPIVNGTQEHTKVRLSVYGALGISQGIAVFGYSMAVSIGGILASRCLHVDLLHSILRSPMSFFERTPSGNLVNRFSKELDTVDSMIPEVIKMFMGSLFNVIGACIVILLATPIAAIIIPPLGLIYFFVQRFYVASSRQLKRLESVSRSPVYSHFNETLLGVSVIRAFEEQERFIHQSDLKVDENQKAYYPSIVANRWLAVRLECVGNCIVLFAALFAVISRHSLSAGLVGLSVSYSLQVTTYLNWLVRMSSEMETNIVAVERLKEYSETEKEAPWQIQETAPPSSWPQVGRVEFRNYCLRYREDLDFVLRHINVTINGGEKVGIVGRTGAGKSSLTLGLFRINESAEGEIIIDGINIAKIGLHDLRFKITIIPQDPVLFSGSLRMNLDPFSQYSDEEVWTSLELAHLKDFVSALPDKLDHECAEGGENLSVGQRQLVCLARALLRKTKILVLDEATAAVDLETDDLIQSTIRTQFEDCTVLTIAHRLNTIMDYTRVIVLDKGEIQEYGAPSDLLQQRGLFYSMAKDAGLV
Sequence of UniProt P54619 (whole entry, looked up): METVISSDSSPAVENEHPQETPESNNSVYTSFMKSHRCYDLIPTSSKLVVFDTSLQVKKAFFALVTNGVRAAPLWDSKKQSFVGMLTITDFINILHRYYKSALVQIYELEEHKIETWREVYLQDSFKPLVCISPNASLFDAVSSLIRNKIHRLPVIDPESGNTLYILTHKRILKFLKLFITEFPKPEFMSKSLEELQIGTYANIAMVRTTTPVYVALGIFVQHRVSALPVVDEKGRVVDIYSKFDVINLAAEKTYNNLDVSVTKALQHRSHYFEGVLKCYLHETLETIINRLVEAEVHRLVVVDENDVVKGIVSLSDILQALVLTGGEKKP

Cc1nc2ccccc2n1Cc1ccc(C(=O)NO)cc1
IC50 (HDAC3 (Homo sapiens, UniProt O15379); concentration not given): 10.9 µM

CC(=O)c1ccc(NC(=O)CSc2nc3ccccc3c(=O)n2-c2ccccc2)cc1
IC50 (PARP1; enzyme activity, inhibitor, absorbance): 0.216 µM

C1=C/COCc2cc(ccc2OCCN2CCCC2)Nc2nccc(n2)-c2cccc(c2)COC/1
IC50 (SLC29A1 (Homo sapiens, UniProt Q99808); transporter uptake, inhibitor, radiometric): 3.7 µM

O=C(CS)NCCCCCC(=O)Nc1ccccc1
IC50 (HDAC8; enzyme activity, inhibitor): 14.1 µM

COC(=O)C(Cc1ccc(CCCC(=O)NCCC(=O)Nc2ccc3nc(C)sc3c2)cc1)C(=O)OC
IC50 (LDHB (Homo sapiens, UniProt P07195); enzyme activity, inhibitor, fluorescence): > 200 µM

COc1ccccc1C=NNc1nc2ccccc2c(=O)n1-c1ccccc1
IC50 (PARP1; enzyme activity): 0.046 µM

Tannic acid
IC50 (Genome polyprotein, NS2B-NS3 protease (Dengue virus type 3, UniProt P27915); inhibitor, fluorogenic substrate Bz-Nle-Lys-Arg-Arg-AMC; DENV3): 0.4 ± 0.03 µM

CC(=O)n1cnc2ccccc21
IC50 (mbtI (Mycobacterium tuberculosis, UniProt P9WFX1); enzyme activity, inhibitor, continuous fluorescence; with: chorismate): > 200 µM

CC(C)NCc1ccc(C[C@@H]2NC(=O)[C@H](N(C)C(=O)c3ccc4ccccc4c3)NC(=O)[C@H](Cc3ccccc3)NC(=O)[C@@H](N)CSSC[C@@H](C(=O)N[C@H](C(N)=O)[C@@H](C)O)NC(=O)[C@H](Cc3ccccc3)NC2=O)cc1
IC50 (SSTR3 (Homo sapiens, UniProt P32745); ligand displacement, radioligand; cell membranes): 0.848 µM

CCN(CC)CC1CCN(c2ncc3ncnc(Nc4ccc(F)c(Cl)c4)c3n2)CC1
IC50 (FLT1 (Homo sapiens, UniProt P17948)): > 10 µM

insulin icodec
IC50 (IGF1R (Homo sapiens, UniProt P08069); binding, competitor, scintillation proximity; solubilized receptor; HSA 0%): 1.52 µM

O=C(O)c1ccc(O)cc1
IC50 (FAAH; enzyme activity, inhibitor, fluorescence; with preincubation): > 100 µM

NC(=O)c1cccc2c1OC[C@@H](CO)O2
IC50 (PARP1): 6.9 ± 0.95 µM

C#Cc1cc2oc(=O)ccc2cc1OC
IC50 (Cytochrome P450 1A2 (CYP1A2, Homo sapiens, UniProt P05177); enzyme activity, inhibitor; 6 min, pH 7.6): 48.3 µM

CN1CCN(C[C@H]2COc3cccc(C(N)=O)c3O2)CC1
IC50 (PARP1): > 5 µM

O=C(NNC(=O)c1ccc(CNS(=O)(=O)c2ccc(F)c(Cl)c2)cc1)c1ccccc1
IC50 (Glutamate NMDA receptor; Grin1/Grin2a (Grin1/Grin2a, Rattus norvegicus, UniProt P35439+Q00959, Q781A); ion current, two-electrode voltage clamp; oocytes): 0.78 µM

CS(=O)(=O)N1CCN(c2ccc(NC(=O)c3cccc4c(Br)cccc34)cc2)CC1
IC50 (Cyclin-dependent kinase 1, with cyclin A2 (CDK1, Homo sapiens, UniProt P06493); enzyme activity, inhibitor, ADP-Glo; upper-bound estimate, partial inhibition): ~3.4 µM

[Cl-].[Cl-].[Zn+2]
IC50 (HVCN1 (Homo sapiens, UniProt Q96D96, E119H/H193A); proton current, inhibitor, whole-cell voltage clamp; human cells; pH 6.5, test pulse 100 mV): 3.7 µM

CC1=NN(c2cccc(C(=O)O)c2)C(=O)/C1=C\c1ccc(-c2ccc(Cl)c(C(=O)NC3CCOCC3)c2)o1
IC50 (DNA repair protein complementing XP-A cells (Homo sapiens, UniProt P23025); binding to cisplatin-DNA, EMSA; full-length XPA): > 25 µM

OCCN1CCN(CCC=C2c3ccccc3Sc3ccc(C(F)(F)F)cc32)CC1
IC50 (USP46, with UAF1 (Homo sapiens, UniProt P62068); deubiquitinase activity, inhibitor; no inhibition up to 114 µM, with: K63-linked diubiquitin): > 114 µM

COc1ccc(OC)c(NC(=O)CSc2nnc(-c3cc4cccc(OC)c4o3)n2-c2ccccc2)c1
IC50 (fungal tyrosinase; enzyme activity, inhibitor, dopachrome absorbance; pH 6.8, 37 °C, with: L-tyrosine substrate): 2.12 ± 5.78 µM

O=C1Nc2ccc(Cl)cc2[C@@](C#CC2CC2)(C(F)(F)F)O1
IC50 (ABCB1 (Homo sapiens, UniProt P08183); transporter efflux, inhibitor, fluorescence; MDCK-II): 123 µM and ~123 µM

c1nc2c(NCc3ccc(CNCCCNC4CCCCC4)cc3)nc(N3CCC(C4CCNCC4)CC3)nc2[nH]1
IC50 (CXCR4; ligand displacement, radioligand; cell membranes): 0.0516 µM

Oc1cccnc1O
IC50 (HDAC8; enzyme activity, inhibitor, SAMDI mass spectrometry): > 10 µM

Cc1onc(-c2ccccc2)c1C(=O)N[C@@H]1C(=O)N2[C@@H]1SC(C)(C)[C@@H]2C(=O)O
IC50 (mecA (Staphylococcus aureus, UniProt A0A0H2WXF8)): 847 µM

O=C(Nc1cc(F)c(F)c(F)c1Br)c1cc(S(=O)(=O)N2CCOCC2)c(Cl)cc1Cl
IC50 (LPAR3 (Homo sapiens, UniProt Q9UBY5); Ca2+ mobilization, antagonist; RH7777; with: LPA at EC50): > 100 µM

O=c1[nH]c2ccccc2n1C1CCN(CCCC(c2ccc(F)cc2)c2ccc(F)cc2)CC1
IC50 (ABCC1; efflux, inhibitor, flow cytometry; SupT1 cells overexpressing ABCC1; with: 100 nM DiOC6): 1.4 ± 0.7 µM

CCCCC(CC)CNC(=N)NC(=N)NCCCCCCNC(=N)NC(=N)NCC(CC)CCCC (stereo not drawn)
IC50 (Calmodulin-1, with adenylyl cyclase 8 (CALM1, Homo sapiens, UniProt P0DP23); AC8-calmodulin interaction, NanoBiT complementation; HEK-293T; 30 min pretreatment, with: rat AC8): 1.23 µM

COc1ccc(-c2cc(=O)c3c(OC)c([C@@H]4O[C@H](C(=O)Nc5ccc(F)cc5)[C@@H](O)[C@H](O)[C@H]4O)c(OC)cc3o2)cc1OC
IC50 (GSK3B (Homo sapiens, UniProt P49841); enzyme activity, inhibitor, ADP detection): 56.2 µM

COc1cc(C(=O)NS(=O)(=O)c2ccccc2C)ccc1Cc1cn(C)c2ccc(NC(=O)OC3CCCC3)cc12
IC50 (Heat shock cognate 71 kDa protein (Bos taurus, UniProt P19120); ATPase activity, inhibitor): 106 µM

c1cc(CNCCCNC2CCCCC2)cc(CNc2nc(N3CCNCC3)nc3[nH]cnc23)c1
IC50 (CXCR4; ligand displacement, radioligand; cell membranes): 0.0042 µM

Cn1c(=O)c(=O)n(C)c2cc(S(=O)(=O)Nc3ccc(Br)cc3)ccc21
IC50 (DPP4 (Homo sapiens, UniProt P27487); enzyme activity, inhibitor, fluorescence): 0.00071 µM

Nc1ncnc2c1ncn2[C@@H]1O[C@H](COP(=O)(O)OP(=O)(O)OP(=O)(O)O)[C@@H](O)[C@H]1O
IC50 (5'-AMP-activated protein kinase subunit gamma-1, with alpha1 beta2 (PRKAG1, Homo sapiens, UniProt P54619); conformational change, AlphaScreen; α1β2γ1 AMPK): 850 µM

O=C(O)c1cc2cc(Br)ccc2c(I)c1O
IC50 (Glutamate NMDA receptor; Grin1/Grin2a (Grin1/Grin2a, Rattus norvegicus, UniProt P35439+Q00959); ion current, two-electrode voltage clamp; oocytes): 3.17 µM

CS(=O)(=O)OC[C@@H]1COc2cccc(C(N)=O)c2O1
IC50 (PARP1): 0.69 ± 0.27 µM

CS(=O)(=O)c1ccc(-c2nn(-c3ccc(C#N)cc3)cc2C(=O)Nc2cccc(F)c2)cc1
IC50 (ALDH1A2 (Homo sapiens, UniProt O94788); enzyme activity, inhibitor, absorbance): 0.54 µM

O=C(O)CCC(C(=O)O)[C@@H]1CCN[C@H]1C(=O)O (relative stereo)
IC50 (AMPA receptor, rat; binding; cortical synaptosomes; with: [3H]-AMPA): > 100 µM

CN1CCN(C2=Nc3ccccc3Oc3ccc(Cl)cc32)CC1
IC50 (ABCC1; efflux, inhibitor; SupT1-Vin overexpressing ABCC1; with: BODIPY FL verapamil 100 nM): 10.1 ± 4.4 µM

O=c1c(O)c(-c2ccc(O)c(O)c2)oc2cc(O)cc(O)c12
IC50 (UGT1A9 (Homo sapiens, UniProt O60656); inhibitor; pooled human liver microsomes; no preincubation, with: propofol): > 250 µM

COc1ccc(CCN2CCC(Nc3nc4ccccc4n3Cc3ccc(F)cc3)CC2)cc1
IC50 (MAPT (Homo sapiens, UniProt P10636); ligand displacement, radioligand): > 10 µM

c1nc2c(NCc3cn(CCCNCCCNC4CCCCC4)nn3)nc(N3CCNCC3)nc2[nH]1
IC50 (CXCR4; β-arrestin-2 recruitment, antagonist, luciferase complementation; MDA-MB-231; 20 min, with: 200 ng/mL CXCL12-α): 1.6 µM and ~1.6 µM

O=C(NC1CCCCC1)OCc1cn(Cc2cccc(Cl)c2)nn1
IC50 (FAAH; enzyme activity, inhibitor, fluorescence; cell membranes): 0.19 µM

O=C(O[C@@H]1Cc2c(O)cc(O)cc2O[C@@H]1c1cc(O)c(O)c(O)c1)c1cc(O)c(O)c(O)c1
IC50 (Cell division cycle 7-related protein kinase, with DBF4 (CDC7, Homo sapiens, UniProt O00311); enzyme activity, inhibitor, ADP-Glo luminescence; with: ATP 12.5 µM): 38.6 ± 24.9 µM

CC1=C(COc2ccc(C(=O)O)cc2)C(=O)c2ccccc2C1=O
IC50 (TXNRD1 (Homo sapiens, UniProt Q16881); enzyme activity, inhibitor; pH 7.4, with preincubation): 2 µM

Cc1ccc(N2CN(CC(=O)Nc3cccc(Cl)c3)S(=O)(=O)c3cccnc32)cc1
IC50 (Tyrosine--tRNA ligase 1 (tyrS1, Pseudomonas aeruginosa, UniProt Q9HWP3); tRNA aminoacylation, scintillation proximity; TyrRS-S): 65 µM
